Measured values pooled from the literature.

Structure (SMILES) = Cn1ncc(-c2nc(N[C@H]3CC[C@H](N)CC3)ncc2Cl)c1CC1CC1; assay = measured: thrombocytopenia grade 3 or higher; test system = human patients phase I; conditions = dose not given; quantity = adverse event incidence; result = 23%
Structure (SMILES) = COc1ccc(C[C@@H]2NC(=O)[C@H]([C@@H](C)O)NC(=O)[C@@H]3[C@@H]4CCN3C(=O)[C@@H]3Cc5cn(c6ccc(F)cc56)CCCCCCN(Cc5ccc(cc5)CCNC(=O)[C@]5(C)CCCN5C2=O)C(=O)CCC(=O)N[C@@H](C)C(=O)N[C@H](CNC(=O)CCCCC[N+](C)(C)C)C(=O)N[C@@H](Cc2cccc(c2)CNC(=O)CO4)C(=O)N3)cc1; assay = measured: blurred vision; test system = human; conditions = Study-003 safety; quantity = adverse events; result = 3.2%
Structure (SMILES) = COc1ccc(-c2ccccc2)cc1NS(=O)(=O)c1cc(Cl)cc(Cl)c1O; tested on = human coronavirus OC43; assay = virus-induced cell killing; test system = MRC-5; conditions = screen; quantity = maximum inhibition; result = 12.9%
Structure (SMILES) = Cc1ncc2n1-c1ccc(Cl)cc1C(c1ccccc1F)=NC2; test system = healthy humans; conditions = oral, dose not given; quantity = adverse event Erythema; result = 0%
Structure (SMILES) = O=c1ccc2ncc(=O)n3c2n1C[C@H]3CN1CCC(NCc2cc3c(cn2)OCCC3)CC1; assay = measured: vessel puncture site bruise; test system = healthy human participants; conditions = oral, 1500 mg, with: rifampicin 600 mg; quantity = adverse event incidence; result = 0%
Structure (SMILES) = CC(=O)N(C)[C@H]1CCN(C(=O)c2cnc3c(c2)C[C@](C)(c2ccc(F)cc2)N3)C1; assay = measured: muscle ache; test system = human; conditions = oral, 30 mg once daily; quantity = adverse event duration; result = 12 days
Structure (SMILES) = [O-][S+]1CCc2nc(N3CCC(c4ncc(Cl)cn4)CC3)nc(NC3(CO)CCC3)c21 (stereo not drawn); assay = measured: gastrointestinal disorders; test system = healthy male humans; conditions = 6 mg twice daily; quantity = adverse event incidence; result = 25%
Structure (SMILES) = C[C@@H](c1nc(-c2ccc(C#N)cc2)cs1)[C@](O)(Cn1cncn1)c1cc(F)ccc1F; test system = healthy humans; conditions = oral, dose not given, with: midazolam; quantity = adverse event Erythema; result = 8.7%
Structure (SMILES) = Cl.Cl.Clc1ccc(Nc2nnc(Cc3ccncc3)c3ccccc23)cc1; tested on = human coronavirus OC43; assay = virus-induced cell killing; test system = MRC-5; conditions = maximum over 10 doses; quantity = maximum inhibition; result = 0%
Structure (SMILES) = O=C(Nc1ccccc1)C1CCN(C(=O)Oc2cccnc2)CC1; assay = measured: Disorientation; test system = healthy female human; conditions = concentration not given, all doses pooled; quantity = adverse event incidence; result = 8%
Structure (SMILES) = O=C(c1ccc(F)c(F)c1Nc1ccc(I)cc1F)N1CC(O)([C@@H]2CCCCN2)C1; test system = human patients; conditions = oral, 1 mg/kg, dose expansion; quantity = adverse events; result = 100%
Structure (SMILES) = Cc1cccc(Cn2nc(C3CC3)c3c(NC(=O)c4cnc5cc(OCCN6CCN(C)CC6)ccn45)cccc32)n1; assay = measured: Fatigue; test system = human advanced solid tumours; conditions = oral, 400 mg, all-causality; quantity = adverse events incidence; result = 42.9%

Some of these lines once more:
Structure (SMILES) = [O-][S+]1CCc2nc(N3CCC(c4ncc(Cl)cn4)CC3)nc(NC3(CO)CCC3)c21 (stereo not drawn); assay = measured: gastrointestinal disorders; test system = healthy male humans; conditions = 6 mg twice daily; quantity = adverse event incidence; result = 25%
Structure (SMILES) = C[C@@H](c1nc(-c2ccc(C#N)cc2)cs1)[C@](O)(Cn1cncn1)c1cc(F)ccc1F; test system = healthy humans; conditions = oral, dose not given, with: midazolam; quantity = adverse event Erythema; result = 8.7%
